Measured values collected from several papers.
Compare with care: the assays were run in different laboratories. ± marks the error that the study gave.
B1: enzyme A172S/A173G/C179K/M174T/Q178P (Streptomyces platensis, UniProt A0A0A0V031); chain MQHTTIGDVLREHRRSHPGRTALVDGPVRLTWPELDDRVNRLAGSLAASGIGRGDRIMWLGQNSFRVYELIAAAGKLGAMVCVGYWRWAPPEMEFALRDFDPHLVVWQHQEIHETVARTREALGSDDTARWLRHDSAPQDPDGYEAFLAAGGLADPDLDIDPDSPVLVLYTSGTSGRPKGSLLSHTNLIAMATAAAWLGDIDHTTAFLNSGPMFHIGNHQFWGMPTLLMAGKNVIVRRVVAEEVRDLLVAEECTHAFLMPPTVAEIVRLNRDTGHDLSRLRATVAPHLWEGMATTDTSRFTRSGAAAGRGYGQTELSGFAVTAAYGGPAAGNAGRPGPGLTVRVLDTAGRECAVGEAGEICARGTVVHRGYWNRDEVNAHRFRSGWWHTTDLGRREPDGSLTFLGTTTRMLKSAAENIFPAEVENCIEQHPAVREAAVIGVPNTRWAQDVKAVVVLEPDAGVSEQEIIDHCRPRIASYKKPKSVAFAAALPRTVSGARDYDALDKEYGGGGYPGAATLGPGR
B2: enzyme A497K (Streptomyces platensis, UniProt A0A0A0V031); chain MQHTTIGDVLREHRRSHPGRTALVDGPVRLTWPELDDRVNRLAGSLAASGIGRGDRIMWLGQNSFRVYELIAAAGKLGAMVCVGYWRWAPPEMEFALRDFDPHLVVWQHQEIHETVARTREALGSDDTARWLRHDSAPQDPDGYEAFLAAGGLADPDLDIDPDSPVLVLYTAAMSGRQCGSLLSHTNLIAMATAAAWLGDIDHTTAFLNSGPMFHIGNHQFWGMPTLLMAGKNVIVRRVVAEEVRDLLVAEECTHAFLMPPTVAEIVRLNRDTGHDLSRLRATVAPHLWEGMATTDTSRFTRSGAAAGRGYGQTELSGFAVTAAYGGPAAGNAGRPGPGLTVRVLDTAGRECAVGEAGEICARGTVVHRGYWNRDEVNAHRFRSGWWHTTDLGRREPDGSLTFLGTTTRMLKSAAENIFPAEVENCIEQHPAVREAAVIGVPNTRWAQDVKAVVVLEPDAGVSEQEIIDHCRPRIASYKKPKSVAFAAALPRTVSGKRDYDALDKEYGGGGYPGAATLGPGR
UniProt Q50EL0, sequence (whole entry, looked up): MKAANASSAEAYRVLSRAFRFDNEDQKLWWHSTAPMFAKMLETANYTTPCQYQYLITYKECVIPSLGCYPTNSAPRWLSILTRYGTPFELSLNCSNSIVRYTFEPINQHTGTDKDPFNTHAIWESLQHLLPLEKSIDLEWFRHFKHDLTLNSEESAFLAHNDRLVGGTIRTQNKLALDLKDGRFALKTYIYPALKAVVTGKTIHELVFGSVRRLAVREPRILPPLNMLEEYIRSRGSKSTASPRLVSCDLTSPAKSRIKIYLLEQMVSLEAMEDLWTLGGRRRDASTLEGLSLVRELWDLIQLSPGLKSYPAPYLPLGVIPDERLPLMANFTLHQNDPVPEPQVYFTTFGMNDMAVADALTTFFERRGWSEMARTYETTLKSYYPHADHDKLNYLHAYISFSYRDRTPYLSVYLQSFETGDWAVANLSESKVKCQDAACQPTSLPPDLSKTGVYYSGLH
UniProt P00488, sequence (whole entry, looked up): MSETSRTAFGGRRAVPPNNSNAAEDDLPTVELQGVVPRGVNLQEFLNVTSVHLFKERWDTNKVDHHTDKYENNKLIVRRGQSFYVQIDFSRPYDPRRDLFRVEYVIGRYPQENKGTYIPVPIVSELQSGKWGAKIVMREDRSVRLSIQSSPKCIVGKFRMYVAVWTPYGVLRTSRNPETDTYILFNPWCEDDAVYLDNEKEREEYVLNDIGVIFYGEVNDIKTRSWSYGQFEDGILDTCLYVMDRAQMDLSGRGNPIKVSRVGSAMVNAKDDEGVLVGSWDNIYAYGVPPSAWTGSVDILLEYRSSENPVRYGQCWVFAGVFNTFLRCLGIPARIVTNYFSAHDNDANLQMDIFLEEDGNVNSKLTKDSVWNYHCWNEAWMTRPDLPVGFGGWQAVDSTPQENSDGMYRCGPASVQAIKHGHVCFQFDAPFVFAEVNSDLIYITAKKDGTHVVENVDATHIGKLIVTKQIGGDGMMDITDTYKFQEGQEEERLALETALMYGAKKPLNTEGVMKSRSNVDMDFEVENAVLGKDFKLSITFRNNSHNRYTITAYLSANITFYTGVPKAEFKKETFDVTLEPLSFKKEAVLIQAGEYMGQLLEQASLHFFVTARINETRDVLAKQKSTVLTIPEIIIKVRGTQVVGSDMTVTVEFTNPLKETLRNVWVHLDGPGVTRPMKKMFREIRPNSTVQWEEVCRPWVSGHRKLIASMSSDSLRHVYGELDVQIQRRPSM

For CC(C)(C)n1cc(CN(Cc2cn(CCOCCOCCOCCOCCOCCOCCC(=O)N[C@@H](CCCNC(=N)N)C(=O)N[C@@H](CCCCN)C(=O)N[C@@H](CCCCN)C(=O)N[C@@H](CCCNC(=N)N)C(=O)N[C@@H](CCCNC(=N)N)C(=O)N[C@@H](CCC(N)=O)C(=O)N[C@@H](CCCNC(=N)N)C(=O)N[C@@H](CCCNC(=N)N)C(=O)N[C@@H](CCCNC(=N)N)C(N)=O)nn2)Cc2cn(C(C)(C)C)nn2)nn1, the intracellular concentration was 32.9 ± 0.4 µM (HUVEC; cellular uptake, LC-ESI-MS/MS; 200 µM, 10 min, with: CuSO4 100 µM and ascorbate 500 µM).
With N=C(N)NCCC[C@@H]1NC(=O)[C@H](CCCCNC(=O)CCOCCOCCOCCOCCNC(=O)CC[C@H](NC(=O)CCOCCOCCOCCOCCNC(=O)CC[C@H](NC(=O)CN2CCN(CC(=O)O)CCN(CC(=O)O)CCN(CC(=O)O)CC2)C(=O)NCCOCCOCCOCCOCCC(=O)N[C@@H](CCC(=O)NCCOCCOCCOCCOCCC(=O)NCCCC[C@@H]2NC(=O)[C@@H](Cc3ccccc3)NC(=O)[C@H](CC(=O)O)NC(=O)CNC(=O)[C@H](CCCNC(=N)N)NC2=O)C(=O)NCCOCCOCCOCCOCCC(=O)NCCCC[C@@H]2NC(=O)[C@@H](Cc3ccccc3)NC(=O)[C@H](CC(=O)O)NC(=O)CNC(=O)[C@H](CCCNC(=N)N)NC2=O)C(=O)NCCOCCOCCOCCOCCC(=O)NCCCC[C@@H]2NC(=O)[C@@H](Cc3ccccc3)NC(=O)[C@H](CC(=O)O)NC(=O)CNC(=O)[C@H](CCCNC(=N)N)NC2=O)NC(=O)[C@@H](Cc2ccccc2)NC(=O)[C@H](CC(=O)O)NC(=O)CNC1=O [indium-111 labelled] the tissue uptake was 0.37 ± 0.07 %ID/g (female athymic nude mice, heart; intravenous, 3 µCi, 72 h, U-87 MG glioma xenograft).
With `F13A1 (Homo sapiens, UniProt P00488)` the kcat was 0.5 s⁻¹ (CC(C)C[C@H](NC(=O)[C@H](CC(C)C)NC(=O)[C@H](CO)NC(=O)[C@H](CC(C)C)NC(=O)[C@@H]1CCCN1C(=O)[C@H](CO)NC(=O)[C@@H](NC(=O)[C@H](CCC(N)=O)NC(=O)[C@H](CCC(=O)O)NC(=O)[C@@H](N)CCC(N)=O)C(C)C)C(=O)N[C@@H](CCCCN)C(=O)O; steady-state kinetics).
C=Cc1c(C)c2cc3nc(c4c5[nH]c(cc6nc(cc1[nH]2)C(C)=C6CC)c(C)c5C(=O)C4)[C@@H](CCC(=O)NCC(=O)N1CCC[C@H]1C(=O)N[C@@H](CC(C)C)C(=O)NCC(=O)N[C@@H](Cc1ccccc1)C(=O)N[C@@H](CCCNC(=N)N)C(=O)N[C@H](C(=O)NCC(=O)N[C@@H](CCCCN)C(N)=O)C(C)C)[C@@H]3C: “mean fluorescence intensity” 38 ± 11 times (OA patient chondrocytes; flow cytometry; 1 µM, 24 h; reference: untreated).
`B1` has a kcat of 10 s⁻¹ (C[C@@]12CCC[C@@](C)(C(=O)OP(=O)(O)OC[C@H]3O[C@@H](n4cnc5c(N)ncnc54)[C@H](O)[C@@H]3O)[C@H]1C[C@@H](O)[C@]13C[C@H]4C[C@H](O[C@@]4(C)C1)[C@@H]23; steady-state kinetics; pH 7.8, 25 °C).
N=C(N)NCCC[C@@H]1NC(=O)[C@H](CCCCNC(=O)CC[C@H](NC(=O)CCOCCOCCOCCOCCNC(=O)CN2CCN(CC(=O)O)CCN(CC(=O)O)CCN(CC(=O)O)CC2)C(=O)NCCCC[C@@H]2NC(=O)[C@@H](Cc3ccccc3)NC(=O)[C@H](CC(=O)O)NC(=O)CNC(=O)[C@H](CCCNC(=N)N)NC2=O)NC(=O)[C@@H](Cc2ccccc2)NC(=O)[C@H](CC(=O)O)NC(=O)CNC1=O [indium-111 labelled] gave a tissue uptake of 1.47 ± 0.35 %ID/g (athymic nude mice, female, U-87 MG glioma xenograft, spleen; intravenous, 3 µCi, 24 h).
For `dmaW (Aspergillus fumigatus, UniProt Q50EL0)`, the kcat was 0.0217 ± 0.00167 s⁻¹ (C/C(Cl)=C/COP(=O)(O)OP(=O)(O)O; steady-state kinetics; pH 7.5, 35 °C).
The tissue uptake of N=C(N)NCCC[C@@H]1NC(=O)[C@H](CCCCNC(=O)CCOCCOCCOCCOCCNC(=O)CN2CCN(CC(=O)O)CCN(CC(=O)O)CCN(CC(=O)O)CC2)NC(=O)[C@@H](Cc2ccccc2)NC(=O)[C@H](CC(=O)O)NC(=O)CNC1=O [indium-111 labelled] is reported as 0.74 ± 0.16 %ID/g (athymic nude mice, female, U-87 MG glioma xenograft, U-87 MG tumour; intravenous, 3 µCi, 72 h).
For `B2 (enzyme A497K)`, the kcat/Km was 1.6e+07 M⁻¹ s⁻¹ (C[C@@]12CCC[C@@](C)(C(=O)OP(=O)(O)OC[C@H]3O[C@@H](n4cnc5c(N)ncnc54)[C@H](O)[C@@H]3O)[C@H]1C[C@@H](O)[C@]13C[C@H]4C[C@H](O[C@@]4(C)C1)[C@@H]23; steady-state kinetics; pH 7.8, 25 °C).
With C[C@H]1COc2c(N3CCN(C)CC3)c(F)cc3c(=O)c(C(=O)N[C@@H](CCCNC(=N)N)C(=O)N[C@@H](Cc4ccc(-c5ccccc5)cc4)C(=O)N[C@@H](CCCNC(=N)N)C(=O)N[C@@H](Cc4ccc(-c5ccccc5)cc4)C(=O)N[C@@H](CCCNC(=N)N)C(N)=O)cn1c23 the hemolysis was 0% (human erythrocytes; 6.25 µM, 1 h, 37 °C; reference: Triton X-100).

For quick reference, copied from above:
For CC(C)(C)n1cc(CN(Cc2cn(CCOCCOCCOCCOCCOCCOCCC(=O)N[C@@H](CCCNC(=N)N)C(=O)N[C@@H](CCCCN)C(=O)N[C@@H](CCCCN)C(=O)N[C@@H](CCCNC(=N)N)C(=O)N[C@@H](CCCNC(=N)N)C(=O)N[C@@H](CCC(N)=O)C(=O)N[C@@H](CCCNC(=N)N)C(=O)N[C@@H](CCCNC(=N)N)C(=O)N[C@@H](CCCNC(=N)N)C(N)=O)nn2)Cc2cn(C(C)(C)C)nn2)nn1, the intracellular concentration was 32.9 ± 0.4 µM (HUVEC; cellular uptake, LC-ESI-MS/MS; 200 µM, 10 min, with: CuSO4 100 µM and ascorbate 500 µM).
With N=C(N)NCCC[C@@H]1NC(=O)[C@H](CCCCNC(=O)CCOCCOCCOCCOCCNC(=O)CC[C@H](NC(=O)CCOCCOCCOCCOCCNC(=O)CC[C@H](NC(=O)CN2CCN(CC(=O)O)CCN(CC(=O)O)CCN(CC(=O)O)CC2)C(=O)NCCOCCOCCOCCOCCC(=O)N[C@@H](CCC(=O)NCCOCCOCCOCCOCCC(=O)NCCCC[C@@H]2NC(=O)[C@@H](Cc3ccccc3)NC(=O)[C@H](CC(=O)O)NC(=O)CNC(=O)[C@H](CCCNC(=N)N)NC2=O)C(=O)NCCOCCOCCOCCOCCC(=O)NCCCC[C@@H]2NC(=O)[C@@H](Cc3ccccc3)NC(=O)[C@H](CC(=O)O)NC(=O)CNC(=O)[C@H](CCCNC(=N)N)NC2=O)C(=O)NCCOCCOCCOCCOCCC(=O)NCCCC[C@@H]2NC(=O)[C@@H](Cc3ccccc3)NC(=O)[C@H](CC(=O)O)NC(=O)CNC(=O)[C@H](CCCNC(=N)N)NC2=O)NC(=O)[C@@H](Cc2ccccc2)NC(=O)[C@H](CC(=O)O)NC(=O)CNC1=O [indium-111 labelled] the tissue uptake was 0.37 ± 0.07 %ID/g (female athymic nude mice, heart; intravenous, 3 µCi, 72 h, U-87 MG glioma xenograft).
